Published values from different studies.
Each line is one published result; not all experiments were run side by side. ± gives the spread as reported.
PSMB7 in 20S proteasome: Proteasome subunit beta type-7, in 20S proteasome (PSMB7, Homo sapiens, UniProt Q99436)
UniProt Q99436, sequence (whole entry, looked up): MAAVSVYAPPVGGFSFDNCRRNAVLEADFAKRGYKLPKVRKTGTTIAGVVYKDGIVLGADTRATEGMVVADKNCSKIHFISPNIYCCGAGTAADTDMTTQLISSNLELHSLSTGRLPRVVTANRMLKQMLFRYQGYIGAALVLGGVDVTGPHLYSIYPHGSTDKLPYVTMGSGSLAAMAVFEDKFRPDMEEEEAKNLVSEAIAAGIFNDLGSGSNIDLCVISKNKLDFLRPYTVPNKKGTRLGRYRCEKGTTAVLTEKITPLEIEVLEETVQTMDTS
TPR: Trypanothione reductase (TPR, Trypanosoma brucei brucei, UniProt P39051)
UniProt P39051, sequence (whole entry, looked up): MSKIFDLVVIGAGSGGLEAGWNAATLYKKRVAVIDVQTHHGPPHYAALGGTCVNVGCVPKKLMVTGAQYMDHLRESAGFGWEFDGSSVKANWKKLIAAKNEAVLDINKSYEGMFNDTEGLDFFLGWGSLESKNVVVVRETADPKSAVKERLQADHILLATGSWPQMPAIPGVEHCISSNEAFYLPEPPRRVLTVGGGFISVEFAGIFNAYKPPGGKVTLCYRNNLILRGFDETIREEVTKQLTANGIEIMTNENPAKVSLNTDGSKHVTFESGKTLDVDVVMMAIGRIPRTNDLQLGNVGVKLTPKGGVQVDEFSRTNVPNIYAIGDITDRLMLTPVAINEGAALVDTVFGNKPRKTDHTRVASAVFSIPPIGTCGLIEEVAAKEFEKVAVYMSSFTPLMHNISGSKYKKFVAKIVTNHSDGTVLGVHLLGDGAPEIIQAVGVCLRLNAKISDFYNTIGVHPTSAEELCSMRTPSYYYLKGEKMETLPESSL
SEC14: SEC14 (Saccharomyces cerevisiae, UniProt P24280)
UniProt P24280, sequence (whole entry, looked up): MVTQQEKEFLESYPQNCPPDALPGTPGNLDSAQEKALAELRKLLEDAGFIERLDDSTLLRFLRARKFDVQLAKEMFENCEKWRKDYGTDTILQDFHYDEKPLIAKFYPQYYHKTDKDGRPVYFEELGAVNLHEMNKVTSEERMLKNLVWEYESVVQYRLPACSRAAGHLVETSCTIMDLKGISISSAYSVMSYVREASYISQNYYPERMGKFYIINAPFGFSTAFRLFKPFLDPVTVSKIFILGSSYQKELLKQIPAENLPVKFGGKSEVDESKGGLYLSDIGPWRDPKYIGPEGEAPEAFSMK
EPHB2: Ephrin type-B receptor 2 (EPHB2, Homo sapiens, UniProt P29323)
UniProt P29323, sequence (whole entry, looked up): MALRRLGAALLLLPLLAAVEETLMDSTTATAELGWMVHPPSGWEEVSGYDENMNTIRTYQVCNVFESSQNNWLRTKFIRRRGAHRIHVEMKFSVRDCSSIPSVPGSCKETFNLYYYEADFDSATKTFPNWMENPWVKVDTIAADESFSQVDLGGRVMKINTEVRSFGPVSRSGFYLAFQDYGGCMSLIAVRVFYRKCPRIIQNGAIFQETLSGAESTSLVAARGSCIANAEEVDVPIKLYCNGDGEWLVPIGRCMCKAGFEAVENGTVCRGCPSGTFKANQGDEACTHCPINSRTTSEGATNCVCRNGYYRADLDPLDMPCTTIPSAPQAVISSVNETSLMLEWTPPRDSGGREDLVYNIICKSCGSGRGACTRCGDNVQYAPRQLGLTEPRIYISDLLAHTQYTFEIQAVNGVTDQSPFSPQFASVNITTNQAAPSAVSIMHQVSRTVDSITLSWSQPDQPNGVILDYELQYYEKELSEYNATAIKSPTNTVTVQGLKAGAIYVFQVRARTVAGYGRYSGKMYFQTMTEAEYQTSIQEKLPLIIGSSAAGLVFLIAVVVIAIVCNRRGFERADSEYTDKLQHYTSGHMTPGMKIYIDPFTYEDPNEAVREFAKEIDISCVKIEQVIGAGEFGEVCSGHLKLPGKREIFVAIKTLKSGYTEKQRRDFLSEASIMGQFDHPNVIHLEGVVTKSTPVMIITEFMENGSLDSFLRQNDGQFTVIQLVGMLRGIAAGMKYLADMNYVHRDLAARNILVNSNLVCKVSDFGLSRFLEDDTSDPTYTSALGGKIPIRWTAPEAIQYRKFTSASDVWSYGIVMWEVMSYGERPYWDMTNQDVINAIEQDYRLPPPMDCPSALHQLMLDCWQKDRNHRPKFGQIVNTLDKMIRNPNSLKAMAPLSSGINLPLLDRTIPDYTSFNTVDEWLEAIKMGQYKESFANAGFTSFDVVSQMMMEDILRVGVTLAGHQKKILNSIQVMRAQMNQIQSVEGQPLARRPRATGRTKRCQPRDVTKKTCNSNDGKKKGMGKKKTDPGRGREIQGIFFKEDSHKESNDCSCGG
PTGS1: Prostaglandin G/H synthase 1 (PTGS1, Homo sapiens, UniProt P23219)
UniProt P23219, sequence (whole entry, looked up): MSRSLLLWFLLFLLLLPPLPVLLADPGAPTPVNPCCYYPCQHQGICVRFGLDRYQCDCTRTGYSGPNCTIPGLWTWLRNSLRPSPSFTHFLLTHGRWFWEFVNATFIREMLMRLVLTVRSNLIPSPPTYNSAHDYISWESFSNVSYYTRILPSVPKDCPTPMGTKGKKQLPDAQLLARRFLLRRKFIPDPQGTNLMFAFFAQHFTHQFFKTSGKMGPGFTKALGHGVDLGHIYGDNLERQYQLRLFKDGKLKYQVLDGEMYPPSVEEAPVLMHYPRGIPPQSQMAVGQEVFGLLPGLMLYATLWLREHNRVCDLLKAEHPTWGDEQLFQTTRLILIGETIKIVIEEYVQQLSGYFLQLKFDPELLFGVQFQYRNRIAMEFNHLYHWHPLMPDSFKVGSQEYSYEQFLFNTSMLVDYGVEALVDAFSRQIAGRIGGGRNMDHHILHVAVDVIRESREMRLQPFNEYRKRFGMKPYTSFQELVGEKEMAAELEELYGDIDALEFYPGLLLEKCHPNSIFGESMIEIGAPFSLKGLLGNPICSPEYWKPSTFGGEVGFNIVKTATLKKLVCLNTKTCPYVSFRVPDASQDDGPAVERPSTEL
JAK2: Tyrosine-protein kinase JAK2 (JAK2, Homo sapiens, UniProt O60674)
UniProt O60674, sequence (whole entry, looked up): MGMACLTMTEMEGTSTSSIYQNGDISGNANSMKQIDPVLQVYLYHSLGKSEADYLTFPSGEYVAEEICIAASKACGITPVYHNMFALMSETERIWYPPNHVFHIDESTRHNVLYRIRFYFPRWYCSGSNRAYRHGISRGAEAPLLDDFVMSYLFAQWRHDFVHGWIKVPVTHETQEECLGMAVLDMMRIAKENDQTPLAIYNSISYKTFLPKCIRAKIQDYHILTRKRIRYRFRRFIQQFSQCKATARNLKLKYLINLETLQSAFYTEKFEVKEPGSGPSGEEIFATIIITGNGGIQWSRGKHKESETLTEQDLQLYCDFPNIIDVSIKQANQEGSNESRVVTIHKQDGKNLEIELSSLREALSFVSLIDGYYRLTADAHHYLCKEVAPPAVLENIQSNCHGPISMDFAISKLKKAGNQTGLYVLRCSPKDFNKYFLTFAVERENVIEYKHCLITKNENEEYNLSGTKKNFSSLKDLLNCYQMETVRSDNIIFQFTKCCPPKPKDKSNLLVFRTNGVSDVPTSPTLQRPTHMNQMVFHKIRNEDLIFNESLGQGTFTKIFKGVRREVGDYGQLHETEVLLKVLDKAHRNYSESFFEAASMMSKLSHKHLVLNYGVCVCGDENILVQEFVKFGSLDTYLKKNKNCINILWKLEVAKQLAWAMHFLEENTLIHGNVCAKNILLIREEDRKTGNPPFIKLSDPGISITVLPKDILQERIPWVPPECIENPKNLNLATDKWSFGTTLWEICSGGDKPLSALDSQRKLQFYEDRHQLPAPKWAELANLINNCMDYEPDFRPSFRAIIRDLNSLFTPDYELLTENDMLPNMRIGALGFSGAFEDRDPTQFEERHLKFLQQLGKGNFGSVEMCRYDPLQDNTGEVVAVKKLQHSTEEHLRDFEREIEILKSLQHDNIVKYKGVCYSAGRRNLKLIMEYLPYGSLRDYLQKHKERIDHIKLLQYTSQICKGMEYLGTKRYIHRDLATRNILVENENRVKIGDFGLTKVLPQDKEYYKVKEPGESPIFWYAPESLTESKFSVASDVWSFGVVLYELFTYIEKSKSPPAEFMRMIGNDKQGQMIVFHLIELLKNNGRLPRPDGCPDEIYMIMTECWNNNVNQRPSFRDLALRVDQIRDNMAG
UniProt Q01647, sequence (whole entry, looked up): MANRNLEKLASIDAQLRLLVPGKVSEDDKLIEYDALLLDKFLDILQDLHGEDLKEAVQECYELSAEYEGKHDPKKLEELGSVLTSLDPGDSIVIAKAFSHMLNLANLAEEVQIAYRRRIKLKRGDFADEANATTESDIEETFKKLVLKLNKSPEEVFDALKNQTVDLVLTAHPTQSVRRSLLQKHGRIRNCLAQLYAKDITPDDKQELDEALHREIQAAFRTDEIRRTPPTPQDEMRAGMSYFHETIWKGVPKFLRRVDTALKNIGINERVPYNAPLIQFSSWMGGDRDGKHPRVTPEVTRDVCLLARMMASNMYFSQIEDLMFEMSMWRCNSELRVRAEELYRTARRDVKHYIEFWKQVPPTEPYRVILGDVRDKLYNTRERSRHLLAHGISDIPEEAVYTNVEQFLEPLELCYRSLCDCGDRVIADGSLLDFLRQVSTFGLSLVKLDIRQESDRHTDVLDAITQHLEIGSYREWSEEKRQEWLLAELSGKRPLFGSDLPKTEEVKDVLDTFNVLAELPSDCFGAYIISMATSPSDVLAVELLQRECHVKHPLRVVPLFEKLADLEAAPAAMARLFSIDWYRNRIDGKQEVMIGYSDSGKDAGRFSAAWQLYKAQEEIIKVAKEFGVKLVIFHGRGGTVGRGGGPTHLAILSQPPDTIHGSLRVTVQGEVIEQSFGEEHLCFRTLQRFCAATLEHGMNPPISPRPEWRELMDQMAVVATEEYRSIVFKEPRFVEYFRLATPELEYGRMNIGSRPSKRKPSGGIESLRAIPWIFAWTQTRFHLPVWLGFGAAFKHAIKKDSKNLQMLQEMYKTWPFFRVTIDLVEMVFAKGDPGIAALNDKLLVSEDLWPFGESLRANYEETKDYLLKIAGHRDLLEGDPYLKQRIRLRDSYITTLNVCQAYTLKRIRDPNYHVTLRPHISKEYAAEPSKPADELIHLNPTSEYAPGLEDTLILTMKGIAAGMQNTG

O=C(Nc1ccc(Cl)cc1)c1ccc([N+](=O)[O-])o1 — IC50 (Thioredoxin reductase 1, cytoplasmic (Txnrd1, Rattus norvegicus, UniProt O89049); enzyme activity, inhibitor): 10.7 µM
C=C(NC(=O)C(=C)NC(=O)c1csc(C2=NC3c4csc(n4)C4NC(=O)c5csc(n5)C(C(C)(O)C(C)O)NC(=O)C5CSC(=N5)C(=CC)NC(=O)C(C(C)C)NC(=O)c5csc(n5)C3(CC2)NC(=O)C(C)NC(=O)C(=C)NC(=O)C(C)NC(=O)C(C(C)CC)NC2C=Cc3c(C(C)O)cc(nc3C2O)C(=O)OC4C)n1)C(N)=O (centres unmarked) — IC50 (PSMB7 in 20S proteasome; trypsin-like activity, inhibitor; purified 20S proteasome; 15 min preincubation, 37 °C, added: Boc-Leu-Arg-Arg-AMC substrate): 1.33 ± 0.27 µM
CCCCCC[N+](CCCCCC)(CCCCCC)CCCCCC — IC50 (Potassium channel subfamily K member 2 (Kcnk2, Rattus norvegicus, UniProt Q920B6); ion current, inhibitor; pH 5, oocytes): 1 µM
Cc1ccc(-c2cc(C(=O)NCCCn3ccnc3)c3cc(Br)ccc3n2)o1 — IC50 (TPR; inhibitor, DTNB-coupled colourimetric; added: substrate at Km): 5.1 µM
Cc1cnc(C(=O)N[C@@H](Cc2cn(C(C)C)cn2)C(=O)N2CCC[C@H]2C(N)=O)cn1 — IC50 (Thyrotropin-releasing hormone receptor (Mus musculus, UniProt P21761); ligand displacement, radioligand): > 50 µM
COC(=O)[C@@H](CS)N1C(=O)c2ccc(N(C)C)cc2C1=O — IC50 (Metallo-beta-lactamase type 2 (Serratia marcescens, UniProt P52699); enzyme activity, inhibitor; pH 7.0, added: chromacef 25 µM): 0.032 ± 0.005 µM
NC(=O)CNC(=O)[C@@H]1CCCN1C(=O)[C@H](Cc1ccc(O)cc1)NC(=O)[C@H](Cc1c[nH]c2ccccc12)NC(=O)[C@@H](Cc1c[nH]c2ccccc12)NC(=O)[C@H](Cc1c[nH]cn1)NC(=O)[C@H](CO)NC(=O)[C@H](Cc1c[nH]c2ccccc12)NC(=O)[C@H](Cc1c[nH]cn1)NC(=O)[C@@H]1CCC(=O)N1 — IC50 (Gonadotropin-releasing hormone receptor (Rattus norvegicus, UniProt P30969); binding, radioligand displacement; WPE-1-NB26-3 expressing Gonadotropin-releasing hormone receptor, whole cells; added: radioiodinated GnRH analogue): 0.0026 ± 0.0003 µM
CCCCCCCCCCCCCCCC=CCC(=O)C(F)(F)F — IC50 (Liver carboxylesterase 1 (CES1, Homo sapiens, UniProt P23141); enzyme activity, inhibitor): > 1 µM
Cc1ccc(C(=O)N2CCN(c3ccc(F)cc3)CC2)cc1 — IC50 (SEC14; enzyme activity, inhibitor, radiometric): 22 µM
COc1cc(OC)c(C(=O)CCc2ccccc2)c(O)c1O — IC50 (Dipeptidyl peptidase 4 (DPP4, Sus scrofa, UniProt P22411); enzyme activity, inhibitor, absorbance): > 165 µM
c1ccc2[nH]c(-c3n[nH]c4ccccc34)nc2c1 — IC50 (3-phosphoinositide-dependent protein kinase 1 (PDPK1, Homo sapiens, UniProt O15530); enzyme activity, inhibitor): 3 µM
CC1OC(Oc2c(-c3ccc(O)cc3)oc3cc(O)cc(O)c3c2=O)C(OC(=O)C=Cc2ccc(O)cc2)C(O)C1OC(=O)C=Cc1ccc(O)cc1 (centres unmarked) — IC50 (C-C chemokine receptor type 8 (CCR8, Homo sapiens, UniProt P51685); calcium flux, antagonist; 293FT GCaMP6 transfected): > 1 µM
CCn1c(-c2cc(NC(=O)c3cnccn3)n[nH]2)cc2ccc(OC)cc21 — IC50 (Casein kinase II subunit alpha (CSNK2A1, Homo sapiens, UniProt P68400)): 0.97 ± 0.14 µM
CNC(=O)C1CCN(c2ccccc2NC(=O)c2ccc(-c3cc(O)ccc3C)c(OC)c2)CC1 — IC50 (EPHB2; target engagement in cells, BRET): 0.276 µM
C=C(NC(=O)C(=C)NC(=O)c1csc(C2=NC3c4csc(n4)C4NC(=O)c5csc(n5)C(C(C)(O)C(C)O)NC(=O)C5CSC(=N5)C(=CC)NC(=O)C(C(C)O)NC(=O)c5csc(n5)C3(CC2)NC(=O)C(C)NC(=O)C(=C)NC(=O)C(=C)NC(=O)C(C(C)CC)NC2C=Cc3c(C(C)O)cc(nc3C2O)C(=O)OC4C)n1)C(N)=O (centres unmarked) — IC50 (PSMB7 in 20S proteasome; trypsin-like activity, inhibitor; purified human 20S proteasome; 37 °C, 15 min preincubation, added: Boc-Leu-Arg-Arg-AMC): 0.71 ± 0.07 µM
CCN(CC)c1ccc(/C=C/C(=O)C(c2ccccc2)c2ccccc2)cc1 — IC50 (Seed linoleate 13S-lipoxygenase-1 (Glycine max, UniProt P08170); enzyme activity, inhibitor, absorbance): 45.5 µM
COc1cc(/C=C/c2ccc(N)cc2)cc(OC)c1OC — IC50 (PTGS1; enzyme activity, inhibitor): 1.4 µM
C=CC(=O)Nc1ccc(-c2c(-c3ccc(Oc4cccc(C)n4)cc3)c3c(N)ncnc3n2C)cc1 — IC50 (Fibroblast growth factor receptor 2 (FGFR2, Homo sapiens, UniProt P21802); Caliper mobility shift; 30 min preincubation, added: 100 µM ATP): 0.0001 µM
O=C1N=C(O)SC1=Cc1ccc(-c2cccc(C(F)(F)F)c2)o1 — IC50 (ADP-ribosyl cyclase/cyclic ADP-ribose hydrolase 1 (CD38, Homo sapiens, UniProt P28907); hydrolase activity, fluorometric; added: ε-NAD+ substrate): > 100 µM
COc1ccc(Br)c(-c2nnc3n2N=C(C(C)C)CS3)c1 — IC50 (3',5'-cyclic-AMP phosphodiesterase 4B (PDE4B, Homo sapiens, UniProt Q07343); enzyme activity, inhibitor, luciferase): 7.5 µM
Nc1ncc(-c2cnn(C3CCNCC3)c2)cc1-c1nc2ccccc2o1 — IC50 (JAK2; enzyme activity, inhibitor, TR-FRET): 1.79 µM
COc1cc(-c2nc3ccc(C(=O)NCCCN4CCN(c5ccccn5)CC4)cc3n2C2CCC2)cc(OC)c1OC — IC50 (Activin receptor type-1 (ACVR1, Homo sapiens, UniProt Q04771); target engagement in cells, BRET): 0.47 µM
CNC(=O)C1CCN(c2ccccc2NC(=O)c2ccc(-c3c(C)ccc4[nH]ncc34)c(C)c2)CC1 — IC50 (EPHB2; target engagement in cells, BRET): 0.028 µM
Nc1ncc(-c2cnn(C3CCNCC3)c2)cc1-c1nc2ccc(Oc3ccccc3)cc2o1 — IC50 (JAK2; enzyme activity, inhibitor, TR-FRET): 1.1 µM
Cn1sc(Nc2c(Cl)ccc3ncccc23)c(C#N)c1=O — IC50 (NAD(+) hydrolase SARM1 (SARM1, Homo sapiens, UniProt Q6SZW1); enzyme activity, inhibitor): 0.16 µM
O=C(O)CC(O)C(=O)O (centres unmarked) — IC50 (PPCA1 (Flaveria pringlei, UniProt Q01647); enzyme activity, inhibitor): 2900 µM
COc1cc(N2CCN(C)CC2)ccc1Nc1ncc2c(n1)N(C)c1ccc(C)cc1C(=O)N2CC(F)(F)F — IC50 (Mitogen-activated protein kinase 7 (MAPK7, Homo sapiens, UniProt Q13164); kinase activity; HeLa): > 10 µM
COc1cccc(Cc2c[nH]c3ncc(C(F)(F)F)cc23)c1 — IC50 (Fibroblast growth factor receptor 4 (FGFR4, Homo sapiens, UniProt P22455); enzyme activity, inhibitor): > 3 µM
Cc1nnc(-n2[nH]cc(-c3cccnc3)c2=O)s1 — IC50 (Prolyl hydroxylase EGLN2 (EGLN2, Homo sapiens, UniProt Q96KS0); enzyme activity, inhibitor, europium VBC binding; 10 µM FeSO4, 2 mM ascorbate, added: 20 µM 2-oxoglutarate): 4.3 µM
NC(=O)[C@@H]1CCCNC(=O)[C@H](Cc2ccc([N+](=O)[O-])cc2)NC(=O)[C@H](Cc2ccco2)NC(=O)[C@H](CC2CC2)NC(=O)/C=C/C(=O)N1 — IC50 (Proto-oncogene tyrosine-protein kinase LCK (Lck, Mus musculus, UniProt P06240); enzyme activity, inhibitor, absorbance): > 100 µM
CC[C@H](C)[C@H](NC(=O)CNC(=O)[C@H](CC(=O)O)NC(=O)[C@H](CO)NC(=O)C=Cc1c[nH]cn1)C(=O)N[C@@H](Cc1ccccc1)C(=O)N[C@H](C(=O)N[C@@H](CC(=O)O)C(=O)N[C@@H](CO)C(=O)N[C@@H](Cc1ccc(O)cc1)C(=O)N[C@@H](CO)C(=O)N[C@@H](CCCNC(=N)N)C(=O)N[C@@H](Cc1ccc(O)cc1)C(=O)N[C@@H](CCCNC(=N)N)C(=O)N[C@@H](CCCCN)C(=O)N[C@@H](CCC(N)=O)C(=O)N[C@@H](CCSC)C(=O)N[C@@H](C)C(=O)N[C@H](C(=O)N[C@@H](CCCCN)C(=O)N[C@@H](CCCCN)C(=O)N[C@@H](C)C(=O)N[C@@H](CC(C)C)C(=O)N[C@@H](C)C(=O)N[C@@H](C)C(=O)N[C@H](C(=O)N[C@@H](CC(C)C)C(=O)NCC(=O)N[C@@H](CCCCN)C(=O)N[C@@H](CCCNC(=N)N)C(=O)N[C@@H](Cc1ccc(O)cc1)C(=O)N[C@@H](CCCCN)C(=O)N[C@@H](CCC(N)=O)C(=O)N[C@@H](CCCNC(=N)N)C(=O)N[C@H](C(=O)N[C@@H](CCCCN)C(=O)N[C@@H](CC(N)=O)C(=O)N[C@@H](CCCCN)C(N)=O)C(C)C)C(C)C)C(C)C)[C@@H](C)O — IC50 (Pituitary adenylate cyclase-activating polypeptide type I receptor (ADCYAP1R1, Homo sapiens, UniProt P41586); ligand displacement, radioligand): 0.00741 µM
NS(=O)(=O)c1ccc(-n2cc(CNc3ccccc3Cl)c(-c3ccc(OCc4ccccc4)cc3)n2)cc1 — IC50 (PTGS1; enzyme activity, inhibitor, absorbance): 183 µM
N#C/C(=C\c1cc(Cn2cncn2)cs1)C(N)=O — IC50 (Ribosomal protein S6 kinase alpha-3, C-terminal kinase domain (RPS6KA3, Homo sapiens, UniProt P51812, T493M); kinase activity, inhibitor; added: 0.1 mM ATP): 27.9 µM
FC(F)(F)c1csc(Nc2ccc(Cl)c(Cl)c2)n1 — IC50 (Kinesin-like protein KIF15, residues 1-700 (Homo sapiens, UniProt Q9NS87); microtubule gliding): 5 µM
COC1C=CC=C(C)C(=O)NC2=CC(=O)C(NCCN(C)C)=C(CC(C)CC(OC)C(O)C(C)C=C(C)C1OC(N)=O)C2=O (centres unmarked) — IC50 (Lysine-specific demethylase 4B (KDM4B, Homo sapiens, UniProt O94953); enzyme activity, inhibitor, AlphaScreen): < 1 µM
Cc1ccc(C(=O)N2CCN(c3ccc(F)cc3)CC2)cc1[N+](=O)[O-] — IC50 (SEC14; enzyme activity, inhibitor, radiometric): 11.1 µM
CC(=O)NCCN(CC(=O)NCCN(CC(=O)NCCN(CC(=O)NCCC(N)=O)C(=O)C[C@@H](N)CCCNC(=N)N)C(=O)C[C@@H](N)Cc1ccccc1)C(=O)C[C@@H](N)Cc1ccccc1 — IC50 (HIV-1 TAR RNA; Tat/TAR complex displacement, FRET; room temperature, added: 10 nM Tat/TAR complex): 28.7 ± 0.5 µM
O=C1CCN(Cc2ccccc2)CC1C(C[N+](=O)[O-])c1ccccc1 (centres unmarked) — IC50 (PTGS1; enzyme activity, inhibitor): 46.1 µM
C[C@](C(=O)NC1CCC(F)(F)CC1)(c1cncnc1)N(C(=O)[C@H](F)Cl)c1ccc(OC(F)(F)F)cc1 — IC50 (Cytochrome P450 2C9 (CYP2C9, Homo sapiens, UniProt P11712); enzyme activity, inhibitor; 10 (unit not given)): > 50 µM
CC1CC(Nc2ncnc3nc[nH]c23)CC(C)(C)C1 (centres unmarked) — IC50 (Sensor histidine protein kinase/phosphatase WalK (walK, Streptococcus pneumoniae, UniProt Q8DPL8); enzyme activity, ATP-competitive inhibitor): 367 µM
CN(C)CCn1nc(-c2cc(Br)ccc2F)nc2c(=O)n(C)c(=O)nc1-2 — IC50 (TPR; inhibitor, DTNB-coupled colourimetric; added: substrate at Km): > 100 µM
CC(=O)[O][Cu+].CN1CCN2CCN(CC1)CCN(Cc1ccccc1)CC2 — IC50 (C-X-C chemokine receptor type 4 (CXCR4, Homo sapiens, UniProt P61073); ligand displacement, flow cytometry): 0.0264 µM
CNC(=O)C1CCN(c2ccccc2NC(=O)c2ccc(-c3cc(O)ccc3C)cc2)CC1 — IC50 (Tyrosine-protein kinase Yes (YES1, Homo sapiens, UniProt P07947); target engagement, NanoBRET; intact cells): > 50 µM
Cc1cc(O)cc(C)c1C[C@H](NC(=O)[C@@H]1CCCN1C(=O)[C@H](CCCNC(=N)N)NC(=O)[C@H](CCCNC(=N)N)N(C)C(=O)[C@@H]1CCCN1C(=O)[C@H](CCCCN)NC(=O)CN1CCN(CC(=O)O)CCN(CC(=O)O)CCN(CC(=O)O)CC1)C(=O)N[C@H](C(=O)N[C@@H](CC(C)C)C(=O)O)C(C)(C)C — IC50 (Neurotensin receptor type 1 (NTSR1, Homo sapiens, UniProt P30989); ligand displacement, radioligand): 0.0472 µM
